Measured values of several laboratories.
Numbered parts are unrelated; each lists some results of a single study.
Sequence of UniProt P49759 (whole entry, looked up): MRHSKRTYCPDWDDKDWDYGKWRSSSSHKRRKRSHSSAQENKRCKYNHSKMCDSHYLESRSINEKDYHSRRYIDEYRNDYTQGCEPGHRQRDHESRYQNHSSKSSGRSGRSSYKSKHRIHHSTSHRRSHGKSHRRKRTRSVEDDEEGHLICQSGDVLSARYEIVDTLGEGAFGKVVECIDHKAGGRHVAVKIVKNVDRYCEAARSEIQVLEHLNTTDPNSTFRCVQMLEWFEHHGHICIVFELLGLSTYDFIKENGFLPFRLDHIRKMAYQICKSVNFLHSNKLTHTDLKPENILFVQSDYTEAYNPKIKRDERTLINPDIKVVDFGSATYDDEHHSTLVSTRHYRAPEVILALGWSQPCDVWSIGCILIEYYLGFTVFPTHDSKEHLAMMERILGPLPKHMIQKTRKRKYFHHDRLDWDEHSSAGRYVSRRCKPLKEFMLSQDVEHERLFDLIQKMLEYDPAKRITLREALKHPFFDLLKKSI
Sequence of UniProt O60674 (whole entry, looked up): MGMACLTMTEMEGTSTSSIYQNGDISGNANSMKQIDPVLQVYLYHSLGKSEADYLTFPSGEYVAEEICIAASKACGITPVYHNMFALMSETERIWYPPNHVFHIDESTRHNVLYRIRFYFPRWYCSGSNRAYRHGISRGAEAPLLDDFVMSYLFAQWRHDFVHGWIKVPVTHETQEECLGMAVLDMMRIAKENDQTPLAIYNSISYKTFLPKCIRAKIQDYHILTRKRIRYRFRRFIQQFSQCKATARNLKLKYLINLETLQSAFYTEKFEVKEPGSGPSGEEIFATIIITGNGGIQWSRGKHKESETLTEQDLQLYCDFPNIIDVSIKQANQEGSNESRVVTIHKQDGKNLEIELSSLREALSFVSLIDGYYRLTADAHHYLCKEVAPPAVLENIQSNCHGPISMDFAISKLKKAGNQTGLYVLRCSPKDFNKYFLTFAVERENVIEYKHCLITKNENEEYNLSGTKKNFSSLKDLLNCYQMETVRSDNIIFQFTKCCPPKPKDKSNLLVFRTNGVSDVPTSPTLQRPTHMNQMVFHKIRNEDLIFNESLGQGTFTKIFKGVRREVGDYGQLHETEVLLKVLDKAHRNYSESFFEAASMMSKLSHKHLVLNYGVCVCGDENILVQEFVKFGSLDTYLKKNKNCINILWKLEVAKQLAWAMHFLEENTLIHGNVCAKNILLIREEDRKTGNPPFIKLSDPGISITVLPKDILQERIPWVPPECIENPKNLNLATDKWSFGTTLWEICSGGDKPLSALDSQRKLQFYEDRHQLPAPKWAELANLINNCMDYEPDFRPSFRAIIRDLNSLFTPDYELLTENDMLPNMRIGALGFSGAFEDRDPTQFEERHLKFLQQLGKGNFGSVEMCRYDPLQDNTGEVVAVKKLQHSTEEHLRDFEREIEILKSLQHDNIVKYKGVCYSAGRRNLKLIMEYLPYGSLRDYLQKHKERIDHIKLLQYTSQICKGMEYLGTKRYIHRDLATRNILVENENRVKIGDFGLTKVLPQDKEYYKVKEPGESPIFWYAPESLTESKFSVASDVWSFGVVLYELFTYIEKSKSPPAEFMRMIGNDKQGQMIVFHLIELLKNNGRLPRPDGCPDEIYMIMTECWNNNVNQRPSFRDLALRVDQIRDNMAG
Sequence of UniProt Q16659 (whole entry, looked up): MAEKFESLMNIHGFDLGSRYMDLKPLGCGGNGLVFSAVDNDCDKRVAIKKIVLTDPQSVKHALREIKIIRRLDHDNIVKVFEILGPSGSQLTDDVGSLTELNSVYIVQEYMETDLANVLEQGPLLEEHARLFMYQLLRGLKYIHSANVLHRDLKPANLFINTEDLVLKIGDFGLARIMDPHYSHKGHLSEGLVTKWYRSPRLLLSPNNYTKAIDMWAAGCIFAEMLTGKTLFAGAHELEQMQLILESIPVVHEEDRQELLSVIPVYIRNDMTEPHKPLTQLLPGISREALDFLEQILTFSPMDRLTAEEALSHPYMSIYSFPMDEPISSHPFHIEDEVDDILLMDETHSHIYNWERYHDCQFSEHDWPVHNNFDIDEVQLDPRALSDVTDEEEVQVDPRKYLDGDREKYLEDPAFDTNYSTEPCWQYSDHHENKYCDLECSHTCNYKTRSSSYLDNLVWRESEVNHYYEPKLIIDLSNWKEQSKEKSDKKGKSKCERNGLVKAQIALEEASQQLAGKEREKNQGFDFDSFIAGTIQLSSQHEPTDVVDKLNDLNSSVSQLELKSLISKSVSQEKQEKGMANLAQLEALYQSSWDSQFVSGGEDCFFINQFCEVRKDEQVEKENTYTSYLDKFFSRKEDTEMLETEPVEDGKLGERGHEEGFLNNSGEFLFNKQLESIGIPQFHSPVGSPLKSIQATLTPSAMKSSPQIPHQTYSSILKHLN
Sequence of UniProt Q8TDX7 (whole entry, looked up): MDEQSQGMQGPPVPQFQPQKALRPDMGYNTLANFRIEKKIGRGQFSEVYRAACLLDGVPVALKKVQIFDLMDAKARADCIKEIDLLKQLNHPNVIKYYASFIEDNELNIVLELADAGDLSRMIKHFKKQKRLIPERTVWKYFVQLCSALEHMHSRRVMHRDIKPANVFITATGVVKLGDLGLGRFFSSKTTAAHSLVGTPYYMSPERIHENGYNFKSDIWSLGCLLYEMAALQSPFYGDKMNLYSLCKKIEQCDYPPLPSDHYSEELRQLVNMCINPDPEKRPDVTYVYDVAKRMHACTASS

Study 1
Species: human
Sample: microsomes or S9
Concentration: 2 µM
Time: 0.5 h
Compound	remaining compound
Cc1cccc(C2NCCc3c2[nH]c2ccccc32)c1 (centres unmarked)	> 100%
C[S+]([O-])c1nc2ccc(F)cc2c(-n2ccnc2)c1-c1ccc(Cl)cc1Cl (centres unmarked)	> 100%
CCN(CC)c1cc(CCC(=O)N(C)CCCc2c(C)nn(C)c2C)ccn1	4.99%
Cc1ccc(NC(=O)NCC(C(C)C)N(C)C)cc1 (centres unmarked)	57.2%
O=C(O)c1cc2cc(-c3ccncc3)c3ccccc3c2o1	63.1%
COc1cc(=O)n2c(c1C(=O)NCc1cccc(C(F)(F)F)c1)CCCC2	44%
CCN(CC)CCCNc1oc(-c2ccco2)nc1S(=O)(=O)c1ccc2c(c1)OCCO2	41.9%
Cc1cn(C)c(CC(=O)NCCCN2CCC(Cc3ccccc3)CC2)c1C(=O)O	94.5%
COC(C)C(C)C(=O)O[C@H]1Cc2cc3ccc(=O)oc3cc2OC1(C)C (some centres unmarked)	11.6%
O=c1c2c3nc4ccccc4nc3n(Cc3ccc4c(c3)OCO4)c2ncn1Cc1ccco1	42.4%
NC(=O)C1CCCC1NC(=O)c1cc2ccccn2c1 (centres unmarked)	> 100%

Study 2
Compound: CO[C@@H](C)c1c(Nc2ccc([C@H](N(C)C(=O)C3CCS(=O)(=O)CC3)C(F)(F)F)cc2)cnc2cc(Cl)nn12
Observed: cell-free assay
Technique: competition with immobilised ligand
Concentration: 1 µM
target	remaining binding
Serine/threonine-protein kinase Nek7 (NEK7, Homo sapiens, UniProt Q8TDX7)	75%
Tyrosine-protein kinase ABL1, phosphorylated (ABL1, Homo sapiens, UniProt P00519)	59%
Mitogen-activated protein kinase 6 (MAPK6, Homo sapiens, UniProt Q16659)	92%
Serine/threonine-protein kinase 4 (STK4, Homo sapiens, UniProt Q13043)	100%
TGF-beta receptor type-2 (TGFBR2, Homo sapiens, UniProt P37173)	100%
Serine/threonine-protein kinase DCLK1 (DCLK1, Homo sapiens, UniProt O15075)	72%
Ephrin type-B receptor 4 (EPHB4, Homo sapiens, UniProt P54760)	100%
Epithelial discoidin domain-containing receptor 1 (DDR1, Homo sapiens, UniProt Q08345)	99%
Leukocyte tyrosine kinase receptor (LTK, Homo sapiens, UniProt P29376)	98%
Receptor-type tyrosine-protein kinase FLT3 (FLT3, Homo sapiens, UniProt P36888, F691L/ITD)	90%
Non-receptor tyrosine-protein kinase TNK1 (TNK1, Homo sapiens, UniProt Q13470)	100%
Citron Rho-interacting kinase (CIT, Homo sapiens, UniProt O14578)	94%
Tyrosine-protein kinase JAK2, JH1 (JAK2, Homo sapiens, UniProt O60674)	100%
Leucine-rich repeat serine/threonine-protein kinase 2 (LRRK2, Homo sapiens, UniProt Q5S007)	100%
Serine/threonine-protein kinase TNNI3K (TNNI3K, Homo sapiens, UniProt Q59H18)	73%
Dual specificity protein kinase CLK1 (CLK1, Homo sapiens, UniProt P49759)	81%

Study 3
Cell line: HaCaT
Concentration: 100 µM
Time: 18 h
SMILES	viability [%]
COC(=O)Nc1nc2ccc(C(=O)c3ccccc3)cc2[nH]1	43.9
Cc1ccc(S(=O)(=O)NC(=O)NN2CCCCCC2)cc1	53.2
CN(C)C(=O)COC(=O)Cc1ccc(OC(=O)c2ccc(NC(=N)N)cc2)cc1	90.1
COc1c(C)c2c(c(O)c1C/C=C(\C)CCC(=O)OCCN1CCOCC1)C(=O)OC2	110
N[C@@H](Cc1c[nH]c2ccc(O)cc12)C(=O)O	111
CN(C(=O)CN(CCO)CC(=O)N(C)C(C)(C)Cc1ccccc1)C(C)(C)Cc1ccccc1	16.3
OC1(c2ccc(Cl)c(C(F)(F)F)c2)CCN(CCCC(c2ccc(F)cc2)c2ccc(F)cc2)CC1	21.4
CN[C@@H]1[C@H](O)[C@H](NC)[C@H]2O[C@@]3(O)C(=O)C[C@@H](C)O[C@H]3O[C@@H]2[C@H]1O	112
O=C1O[C@H](CO)[C@@H](O)[C@H](O)[C@H]1O	107
C[C@@H](Oc1cc(-c2cnn(C3CCNCC3)c2)cnc1N)c1c(Cl)ccc(F)c1Cl	18.1
CC1=C(C(=O)O)N2C(=O)[C@@H](NC(=O)[C@H](N)c3ccc(O)cc3)[C@H]2SC1	118
CC(C)c1cc2c(cc1S(=O)(=O)O)[C@@]1(C)CCC[C@@](C)(C(=O)O)[C@@H]1CC2	111
CC(N)[C@]12C[C@H]3C[C@H](C[C@H](C3)C1)C2 (some centres unmarked)	97.2

Study 4
Target: Serine/threonine-protein kinase Nek9 (NEK9, Homo sapiens, UniProt Q8TD19)
Sequence of UniProt Q8TD19 (whole entry, looked up): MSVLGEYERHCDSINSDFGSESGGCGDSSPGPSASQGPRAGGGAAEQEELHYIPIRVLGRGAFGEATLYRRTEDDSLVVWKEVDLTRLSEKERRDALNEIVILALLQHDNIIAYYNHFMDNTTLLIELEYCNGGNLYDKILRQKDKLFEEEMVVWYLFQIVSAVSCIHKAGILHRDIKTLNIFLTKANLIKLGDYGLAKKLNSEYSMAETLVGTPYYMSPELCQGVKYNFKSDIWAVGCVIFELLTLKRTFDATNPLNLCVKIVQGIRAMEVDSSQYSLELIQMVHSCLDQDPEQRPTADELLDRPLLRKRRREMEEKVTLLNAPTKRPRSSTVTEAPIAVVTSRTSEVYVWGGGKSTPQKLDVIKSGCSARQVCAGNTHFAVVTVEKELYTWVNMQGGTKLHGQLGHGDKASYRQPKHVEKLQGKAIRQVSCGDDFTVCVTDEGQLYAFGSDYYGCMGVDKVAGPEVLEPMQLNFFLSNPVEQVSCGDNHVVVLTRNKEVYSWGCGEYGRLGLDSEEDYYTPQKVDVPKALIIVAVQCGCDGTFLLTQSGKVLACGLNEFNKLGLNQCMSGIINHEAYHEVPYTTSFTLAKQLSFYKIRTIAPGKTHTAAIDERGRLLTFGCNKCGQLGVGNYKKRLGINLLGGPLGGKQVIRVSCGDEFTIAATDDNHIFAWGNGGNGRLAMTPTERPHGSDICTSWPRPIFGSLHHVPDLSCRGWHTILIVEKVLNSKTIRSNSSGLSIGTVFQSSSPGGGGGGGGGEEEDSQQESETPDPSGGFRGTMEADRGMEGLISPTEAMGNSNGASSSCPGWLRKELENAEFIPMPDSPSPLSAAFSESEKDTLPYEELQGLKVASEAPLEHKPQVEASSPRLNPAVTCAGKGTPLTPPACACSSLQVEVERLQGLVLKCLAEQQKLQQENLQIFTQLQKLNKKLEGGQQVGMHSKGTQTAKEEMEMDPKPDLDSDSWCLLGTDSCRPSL
Observed: enzyme activity
Mode: inhibitor
Concentration: 0.5 µM
Baseline: control
Structure (SMILES)	remaining activity [%]
CN(C)C[C@H]1CCn2c(c(C3=C(c4cn(C)c5ccccc45)C(=O)NC3=O)c3ccccc32)C1	97.6
Cn1nc2c3c(cccc31)C(=O)c1ccccc1-2	96.6
C[C@@H]1CCN(C(=O)CC#N)C[C@@H]1N(C)c1ncnc2[nH]ccc12	96.2
CCN(CC)C(=O)c1ccc(Nc2nc(OCC3CCCCC3)c3[nH]cnc3n2)cc1	81.9
N#C/C(=C\c1ccc(O)c(O)c1)C(=O)NCc1ccccc1	97.2
CN([C@@H](Cc1ccc(OS(=O)(=O)c2cccc3cnccc23)cc1)C(=O)N1CCN(c2ccccc2)CC1)S(=O)(=O)c1cccc2cnccc12	97.6
Cc1nc2cc3nc(-c4cccs4)cnc3cc2n1C	105
O=C(Nc1cccc(Nc2nccc(Nc3cccc(C(F)(F)F)c3)n2)c1)C1CC1	102
Ic1cccc(CSc2nnc(-c3ccncc3)o2)c1	99.2
CCOc1nc(NC(=O)Cc2cc(OC)ccc2OC)cc(N)c1C#N	95.9
O=C(NC(NC(=S)Nc1ccc(F)c([N+](=O)[O-])c1)C(Cl)(Cl)Cl)C(c1ccccc1)c1ccccc1 (centres unmarked)	110
N#Cc1c(NC(=O)c2cccc3ccccc23)sc2c1CCCC2	96
Cc1cc2ncc(-c3ccccc3)nc2cc1C	93.1

Some of these lines once more (study 3):
SMILES	viability [%]
OC1(c2ccc(Cl)c(C(F)(F)F)c2)CCN(CCCC(c2ccc(F)cc2)c2ccc(F)cc2)CC1	21.4
CN[C@@H]1[C@H](O)[C@H](NC)[C@H]2O[C@@]3(O)C(=O)C[C@@H](C)O[C@H]3O[C@@H]2[C@H]1O	112
O=C1O[C@H](CO)[C@@H](O)[C@H](O)[C@H]1O	107
C[C@@H](Oc1cc(-c2cnn(C3CCNCC3)c2)cnc1N)c1c(Cl)ccc(F)c1Cl	18.1
CC1=C(C(=O)O)N2C(=O)[C@@H](NC(=O)[C@H](N)c3ccc(O)cc3)[C@H]2SC1	118
CC(C)c1cc2c(cc1S(=O)(=O)O)[C@@]1(C)CCC[C@@](C)(C(=O)O)[C@@H]1CC2	111
CC(N)[C@]12C[C@H]3C[C@H](C[C@H](C3)C1)C2 (some centres unmarked)	97.2
